Assay results gathered from unrelated publications.
Compare with care: the assays were run in different laboratories. ± gives the spread as reported. No end group written: not given here.
CHRM1: Muscarinic acetylcholine receptor M1 (CHRM1, Homo sapiens, UniProt P11229)
Chain of UniProt P11229 (whole entry, looked up): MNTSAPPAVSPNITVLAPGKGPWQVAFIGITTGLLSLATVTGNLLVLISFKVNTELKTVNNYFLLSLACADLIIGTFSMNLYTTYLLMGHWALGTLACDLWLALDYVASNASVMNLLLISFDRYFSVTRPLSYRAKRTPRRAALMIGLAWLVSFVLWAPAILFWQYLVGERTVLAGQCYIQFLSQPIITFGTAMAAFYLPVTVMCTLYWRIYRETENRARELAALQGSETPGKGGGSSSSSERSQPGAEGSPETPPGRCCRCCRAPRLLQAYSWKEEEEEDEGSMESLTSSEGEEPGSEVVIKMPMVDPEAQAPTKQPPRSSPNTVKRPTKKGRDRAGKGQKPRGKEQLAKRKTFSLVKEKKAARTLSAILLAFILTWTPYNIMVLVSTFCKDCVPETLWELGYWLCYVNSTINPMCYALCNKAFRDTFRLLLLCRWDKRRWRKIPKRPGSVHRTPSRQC
SCN10A: Sodium channel protein type 10 subunit alpha (SCN10A, Homo sapiens, UniProt Q9Y5Y9)
Chain of UniProt Q9Y5Y9 (whole entry, looked up): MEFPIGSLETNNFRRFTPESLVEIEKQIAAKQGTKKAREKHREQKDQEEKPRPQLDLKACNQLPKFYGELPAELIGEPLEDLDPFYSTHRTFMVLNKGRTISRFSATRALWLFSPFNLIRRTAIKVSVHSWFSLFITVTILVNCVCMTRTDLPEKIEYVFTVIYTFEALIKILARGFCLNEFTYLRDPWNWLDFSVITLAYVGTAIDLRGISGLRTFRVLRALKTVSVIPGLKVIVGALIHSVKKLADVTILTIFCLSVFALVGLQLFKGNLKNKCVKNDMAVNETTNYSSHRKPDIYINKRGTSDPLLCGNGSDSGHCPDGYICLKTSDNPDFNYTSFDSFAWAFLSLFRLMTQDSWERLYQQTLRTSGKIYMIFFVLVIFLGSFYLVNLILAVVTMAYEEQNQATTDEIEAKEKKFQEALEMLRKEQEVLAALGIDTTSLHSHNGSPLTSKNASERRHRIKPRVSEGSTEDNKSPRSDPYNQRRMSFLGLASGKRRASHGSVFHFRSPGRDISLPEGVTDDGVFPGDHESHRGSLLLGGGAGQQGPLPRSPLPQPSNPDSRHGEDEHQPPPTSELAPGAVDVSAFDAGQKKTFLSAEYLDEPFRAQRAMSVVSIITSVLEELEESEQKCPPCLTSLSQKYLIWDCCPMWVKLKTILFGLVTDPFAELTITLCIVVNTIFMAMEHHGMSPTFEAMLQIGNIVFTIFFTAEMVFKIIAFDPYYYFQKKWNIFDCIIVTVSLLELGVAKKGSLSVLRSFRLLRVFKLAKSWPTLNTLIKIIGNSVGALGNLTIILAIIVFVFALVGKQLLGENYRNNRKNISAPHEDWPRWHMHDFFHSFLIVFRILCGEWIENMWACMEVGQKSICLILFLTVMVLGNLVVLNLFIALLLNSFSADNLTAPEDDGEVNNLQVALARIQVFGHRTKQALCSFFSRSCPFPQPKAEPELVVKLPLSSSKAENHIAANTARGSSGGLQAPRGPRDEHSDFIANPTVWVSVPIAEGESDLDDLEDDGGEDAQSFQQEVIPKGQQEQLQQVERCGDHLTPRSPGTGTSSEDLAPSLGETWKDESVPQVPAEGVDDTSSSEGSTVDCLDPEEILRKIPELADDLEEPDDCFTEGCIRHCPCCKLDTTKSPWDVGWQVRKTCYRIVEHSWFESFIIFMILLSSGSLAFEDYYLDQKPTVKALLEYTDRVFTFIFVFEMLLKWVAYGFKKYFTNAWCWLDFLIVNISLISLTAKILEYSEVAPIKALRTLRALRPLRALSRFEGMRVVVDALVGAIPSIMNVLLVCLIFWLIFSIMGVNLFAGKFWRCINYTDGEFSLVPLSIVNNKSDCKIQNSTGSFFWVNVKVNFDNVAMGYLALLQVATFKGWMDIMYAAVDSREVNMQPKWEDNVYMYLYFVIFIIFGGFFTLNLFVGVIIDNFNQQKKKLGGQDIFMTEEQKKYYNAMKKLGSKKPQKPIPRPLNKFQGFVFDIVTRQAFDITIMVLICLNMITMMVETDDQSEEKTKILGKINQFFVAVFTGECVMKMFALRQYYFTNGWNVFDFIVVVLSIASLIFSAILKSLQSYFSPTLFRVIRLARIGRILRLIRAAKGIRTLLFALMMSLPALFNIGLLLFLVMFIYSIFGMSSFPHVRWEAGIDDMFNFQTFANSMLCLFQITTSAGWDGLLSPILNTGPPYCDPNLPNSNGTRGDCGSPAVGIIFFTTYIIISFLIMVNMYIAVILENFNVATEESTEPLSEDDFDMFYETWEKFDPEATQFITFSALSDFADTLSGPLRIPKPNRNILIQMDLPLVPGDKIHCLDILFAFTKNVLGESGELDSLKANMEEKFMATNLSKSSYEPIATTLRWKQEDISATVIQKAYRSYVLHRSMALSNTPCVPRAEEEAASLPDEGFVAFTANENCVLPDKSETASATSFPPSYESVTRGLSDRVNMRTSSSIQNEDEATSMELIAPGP
CHRM4: Muscarinic acetylcholine receptor M4 (CHRM4, Homo sapiens, UniProt P08173)
Chain of UniProt P08173 (whole entry, looked up): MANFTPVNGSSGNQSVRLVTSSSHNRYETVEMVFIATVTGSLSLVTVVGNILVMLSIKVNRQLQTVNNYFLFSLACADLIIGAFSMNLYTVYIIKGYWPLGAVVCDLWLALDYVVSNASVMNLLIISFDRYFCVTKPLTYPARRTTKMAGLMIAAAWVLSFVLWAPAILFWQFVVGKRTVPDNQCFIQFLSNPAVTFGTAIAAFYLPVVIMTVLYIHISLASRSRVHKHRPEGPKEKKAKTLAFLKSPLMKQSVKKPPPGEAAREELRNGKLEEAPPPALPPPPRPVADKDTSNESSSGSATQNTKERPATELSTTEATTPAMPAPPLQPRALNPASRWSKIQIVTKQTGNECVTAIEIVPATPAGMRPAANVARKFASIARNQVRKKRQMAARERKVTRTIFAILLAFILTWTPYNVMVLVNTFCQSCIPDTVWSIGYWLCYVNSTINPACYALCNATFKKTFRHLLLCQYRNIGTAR
T1: DNA hairpin, CGG duplex, TTTT loop; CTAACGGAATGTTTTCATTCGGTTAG
T2: c-di-GMP riboswitch (Clostridium acetobutylicum); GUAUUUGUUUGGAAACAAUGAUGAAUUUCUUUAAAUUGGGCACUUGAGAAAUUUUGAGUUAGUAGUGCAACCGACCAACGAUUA
T3: ssRNA, CUG repeat (Homo sapiens); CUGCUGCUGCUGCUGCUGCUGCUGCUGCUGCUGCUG
T4: G-quadruplex DNAzyme, parallel; GGGTAGGGCGGGTTGGG
B1: side-chain stapled; chain WRTKQEARKSTGG (also: sidechain bridge or staple (positions not given here))
Chain of UniProt P50391 (whole entry, looked up): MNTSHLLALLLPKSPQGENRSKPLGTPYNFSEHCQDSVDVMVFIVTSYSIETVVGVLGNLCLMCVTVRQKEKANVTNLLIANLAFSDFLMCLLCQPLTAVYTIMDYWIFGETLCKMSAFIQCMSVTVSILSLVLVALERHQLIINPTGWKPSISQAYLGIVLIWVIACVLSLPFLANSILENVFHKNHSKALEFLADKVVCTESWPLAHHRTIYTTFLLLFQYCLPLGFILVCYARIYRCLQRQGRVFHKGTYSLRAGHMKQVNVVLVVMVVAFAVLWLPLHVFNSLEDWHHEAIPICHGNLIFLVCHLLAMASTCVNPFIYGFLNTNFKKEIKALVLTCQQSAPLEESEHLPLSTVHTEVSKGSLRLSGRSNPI
Chain of UniProt Q8VCM7 (whole entry, looked up): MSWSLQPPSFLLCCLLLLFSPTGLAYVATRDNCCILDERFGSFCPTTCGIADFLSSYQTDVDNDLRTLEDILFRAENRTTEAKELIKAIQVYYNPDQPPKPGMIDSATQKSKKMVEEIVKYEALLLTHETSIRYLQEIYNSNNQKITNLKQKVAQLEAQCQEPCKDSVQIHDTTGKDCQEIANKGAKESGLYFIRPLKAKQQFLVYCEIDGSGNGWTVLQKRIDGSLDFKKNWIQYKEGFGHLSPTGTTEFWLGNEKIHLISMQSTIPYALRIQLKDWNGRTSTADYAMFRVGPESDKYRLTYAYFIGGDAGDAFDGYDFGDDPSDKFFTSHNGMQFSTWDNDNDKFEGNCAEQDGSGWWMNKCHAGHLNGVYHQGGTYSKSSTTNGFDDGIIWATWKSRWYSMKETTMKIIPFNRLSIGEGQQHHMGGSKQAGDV
Chain of UniProt P06401 (whole entry, looked up): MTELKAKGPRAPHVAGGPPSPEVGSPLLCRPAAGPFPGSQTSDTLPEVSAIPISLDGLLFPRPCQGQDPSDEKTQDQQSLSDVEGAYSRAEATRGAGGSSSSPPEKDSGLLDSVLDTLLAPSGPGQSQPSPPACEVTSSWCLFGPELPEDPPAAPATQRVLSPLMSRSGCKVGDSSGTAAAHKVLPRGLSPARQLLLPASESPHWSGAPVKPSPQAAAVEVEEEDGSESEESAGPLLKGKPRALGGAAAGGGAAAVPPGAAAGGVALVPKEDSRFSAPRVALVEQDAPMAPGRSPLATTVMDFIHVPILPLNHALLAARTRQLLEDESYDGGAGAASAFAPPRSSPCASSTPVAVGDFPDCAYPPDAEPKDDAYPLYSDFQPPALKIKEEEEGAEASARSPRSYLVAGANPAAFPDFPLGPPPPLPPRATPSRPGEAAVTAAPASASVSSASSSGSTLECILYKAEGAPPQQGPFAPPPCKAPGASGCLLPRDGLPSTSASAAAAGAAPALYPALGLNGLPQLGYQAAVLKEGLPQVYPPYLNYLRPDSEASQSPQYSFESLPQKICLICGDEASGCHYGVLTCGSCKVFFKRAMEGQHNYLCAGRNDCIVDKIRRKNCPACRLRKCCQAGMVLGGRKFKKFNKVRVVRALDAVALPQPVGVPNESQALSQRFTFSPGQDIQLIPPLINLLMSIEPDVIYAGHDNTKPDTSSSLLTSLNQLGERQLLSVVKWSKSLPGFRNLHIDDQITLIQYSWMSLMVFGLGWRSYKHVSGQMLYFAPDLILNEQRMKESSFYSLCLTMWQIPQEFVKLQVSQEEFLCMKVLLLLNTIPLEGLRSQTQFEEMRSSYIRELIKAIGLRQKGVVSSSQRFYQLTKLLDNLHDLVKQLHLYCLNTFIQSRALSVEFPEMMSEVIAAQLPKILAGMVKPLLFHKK
Chain of UniProt P00813 (whole entry, looked up): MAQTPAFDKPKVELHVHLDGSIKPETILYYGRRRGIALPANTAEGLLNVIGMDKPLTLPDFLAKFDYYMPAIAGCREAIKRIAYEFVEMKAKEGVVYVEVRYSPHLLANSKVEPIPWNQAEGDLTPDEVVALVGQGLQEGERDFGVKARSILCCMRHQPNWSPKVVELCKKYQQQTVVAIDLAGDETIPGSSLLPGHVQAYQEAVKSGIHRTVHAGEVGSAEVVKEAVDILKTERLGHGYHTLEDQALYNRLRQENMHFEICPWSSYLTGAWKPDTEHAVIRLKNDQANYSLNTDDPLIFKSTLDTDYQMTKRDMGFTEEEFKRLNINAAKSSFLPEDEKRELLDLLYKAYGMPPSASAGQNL

CN(C)C(=O)c1ccc(COc2ccccc2-c2cc(=O)n(C3CCCCC3O)cn2)cc1 (stereo not drawn) — ΔpEC50 of ACh (CHRM1; positive allosteric modulator, IP1 accumulation; CHO-M1 cells; 1 µM, 60 min, 37 °C, with: ACh; baseline: ACh alone, higher = stronger potentiation): 0.32 ± 0.09 log units
NCCSC[C@@H](N)C(=O)O — inactivation (Lysine 5,6-aminomutase (Porphyromonas gingivalis, UniProt Q7MVI7+Q7MVI8); suicide inhibitor; 20 mM, pH 8.5, anaerobic, with: adenosylcobalamin and PLP): 77%
COC(=O)c1scc(C)c1NC(=O)C(C)N1CCN(C(C)C)CC1 (stereo not drawn) — capacity factor k′ (SCN10A; cell membrane chromatography; higher = stronger binding): 55
CC(C)=CCC/C(C)=C/CC/C(C)=C/CO — dehydrogenase activity (All-trans-retinol dehydrogenase [NAD(+)] ADH7 (Adh7, Rattus norvegicus, UniProt P41682); substrate; 0.1 mM, pH 7.4, with: 2 mM NAD+): 43 U/mg
CCCCCCCCCCCCCCCC(=O)N[C@@H](CCC(=O)NCCCC[C@H](NC(=O)[C@H](CC(C)C)NC(=O)[C@@H]1CCCN1C(=O)[C@H](C)NC(=O)c1ccc2c(c1)C(=O)OC21c2ccc(O)cc2Oc2cc(O)ccc21)C(=O)N1CCC[C@H]1C(=O)N[C@H](C(=O)N[C@@H](Cc1ccc(O)cc1)C(=O)N1CCC[C@H]1C(=O)NCC(=O)N[C@@H](CC(=O)O)C(=O)N[C@@H](CC(N)=O)C(=O)N[C@@H](C)C(=O)N[C@H](C(=O)N1CCC[C@H]1C(=O)N[C@@H](CCC(=O)O)C(=O)N[C@@H](CCC(N)=O)C(=O)N[C@@H](CCSC)C(=O)N[C@@H](C)C(=O)N[C@@H](CCC(N)=O)C(=O)N[C@@H](Cc1ccc(O)cc1)C(=O)N[C@@H](C)C(=O)N[C@@H](C)C(=O)N[C@@H](CC(=O)O)C(=O)N[C@@H](CC(C)C)C(=O)N[C@@H](CCCNC(=N)N)C(=O)N[C@@H](CCCNC(=N)N)C(=O)N[C@@H](Cc1ccc(O)cc1)C(=O)N[C@H](C(=O)N[C@@H](CC(N)=O)C(=O)N[C@@H](CCSC)C(=O)N[C@@H](CC(C)C)C(=O)N[C@H](C(=O)N[C@@H](CCCNC(=N)N)C(=O)N1CCC[C@H]1C(=O)N[C@@H](CCCNC(=N)N)C(=O)N[C@@H](Cc1ccc(O)cc1)C(N)=O)[C@@H](C)O)[C@@H](C)CC)[C@@H](C)O)C(C)C)C(=O)O — specific binding (NPY4R (Homo sapiens, UniProt P50391); radioligand displacement; COS-7 transiently expressing; 1 µM, 90 min, room temperature, with: [3H]-hPP 1 nM; baseline: total binding): 37%
CCCCn1cc(-c2ccc(COc3ccccc3-c3cc(=O)n(C4CCCCC4O)cn3)cc2)cn1 (stereo not drawn) — change in baseline activity (CHRM1; allosteric agonist, IP1 accumulation; CHO-M1 cells; 10 µM, unit not given; baseline: maximum ACh response): 68.5 ± 2.7
COc1ccc(C)c2sc(NS(=O)(=O)c3ccc(F)cc3F)nc12 — activity (CHRM4; calcium mobilization, positive allosteric modulator; CHO expressing hM4 and Gqi5; concentration not given, with: acetylcholine EC20): inactive
COC(=O)c1scc(C)c1NC(=O)C(C)N1CCN(c2ccccc2)CC1 (stereo not drawn) — capacity factor k′ (SCN10A; cell membrane chromatography; higher = stronger binding): 45
O=C(O)[C@H]1O[C@@H](Oc2ccc3c(=O)c(O)c(-c4ccc(O)cc4)oc3c2)[C@H](O)[C@@H](O)[C@@H]1O — Ksi (UGT1A1 (Homo sapiens, UniProt P22309); glucuronidation, substrate, refers to: 3,7,4'-trihydroxyflavone glucuronide): 1.26 ± 0.54 µM
CC(C)n1cc(-c2ccc(COc3ccccc3-c3cc(=O)n(C4CCCCC4O)cn3)cc2)cn1 (stereo not drawn) — change in baseline activity (CHRM1; allosteric agonist, IP1 accumulation; CHO-M1 cells; 10 µM, unit not given; baseline: maximum ACh response): 81 ± 2.7
COc1cccc(C#Cc2ccc(C)cn2)c1 — pKB (Grm5 (Rattus norvegicus, UniProt P31424); calcium mobilization, negative allosteric modulator; 30 min, with: glutamate): 6.72 ± 0.26 -log M
O=S(=O)(Nc1ccccc1Cl)C1CC2OC1C(c1ccc(O)cc1)=C2c1ccc(O)cc1 (stereo not drawn) — efficacy (ESR2 (Homo sapiens, UniProt Q92731); reporter gene, antagonist; HepG2; with: estradiol 10 nM; baseline: E2 response, negative is inverse agonism): -5 ± 3%
Cc1ccc2ccc(NC(=O)CCNCCC(=O)Nc3ccc4ccc(C)nc4n3)nc2n1 — Kd (T1, DNA hairpin, CGG duplex, TTTT loop; SPR; apparent, kinetic fit): 350 nM
CSc1nc2c([nH]1)c(=O)n(C)c(=O)n2C — remaining activity (PGR (Homo sapiens, UniProt P06401); reporter gene, antagonist, MMTV-luciferase; T47D/A1-2; 10 µM, 24 h, with: 5 nM progesterone; baseline: maximal activity): 9%
NC(=O)c1ccc(COc2ccccc2-c2cc(=O)n(C3CCCCC3O)cn2)cc1 (stereo not drawn) — change in baseline activity (CHRM1; allosteric agonist, IP1 accumulation; CHO-M1 cells; 1 µM, unit not given; baseline: maximum ACh response): 37.9 ± 3.3
CC(C)C[C@H](NP(=O)(O)O[C@@H]1O[C@@H](C)[C@H](O)[C@@H](O)[C@H]1O)C(=O)N[C@@H](Cc1c[nH]c2ccccc12)C(=O)O — THF N-terminal degradation (aminopeptidases; inhibitor; human blood; 7 to 607 µM, 30 min preincubation, 37 °C, with: THF): no effect
CN(C)S(=O)(=O)c1ccc(COc2ccccc2-c2cc(=O)n(C3CCCCC3O)cn2)cc1 (stereo not drawn) — ΔpEC50 of ACh (CHRM1; positive allosteric modulator, IP1 accumulation; CHO-M1 cells; 1 µM, 60 min, 37 °C, with: ACh; baseline: ACh alone, higher = stronger potentiation): 0.22 ± 0.09 log units
COc1ccc(C)c2sc(NC(=O)c3ccccn3)nc12 — activity (CHRM4; calcium mobilization, positive allosteric modulator; CHO expressing hM4 and Gqi5; concentration not given, with: acetylcholine EC20): inactive
CIKVAVS — maximum inhibition (human polyclonal IgM rheumatoid factor; binding to mAb II-481; peptide; combined CDR peptides, serum ABR): 0%
COc1ccc(C)c2sc(NS(=O)(=O)c3cnn(C)c3)nc12 — activity (CHRM4; calcium mobilization, positive allosteric modulator; CHO expressing hM4 and Gqi5; concentration not given, with: acetylcholine EC20): inactive
NS(=O)(=O)c1ccc(N2N=C(C(F)(F)F)C[C@@H]2c2ccc(F)cc2F)cc1 — IC80 (Cyclooxygenase-2 (Canis lupus familiaris, UniProt Q8SPQ9); PGE2 formation, inhibitor; dog whole blood; 24 h, with: LPS): > 30000 nM
Brc1cccc2[nH]ccc12 — conversion (Dehaloperoxidase B, ferric (Amphitrite ornata, UniProt Q9NAV7); substrate, HPLC; 5% methanol; 5 min, pH 7, 25 °C, enzyme 10 µM, with: H2O2 500 µM): 41.1%
COC(=O)c1scc(C)c1NC(=O)C(C)N(CCO)CCO (stereo not drawn) — capacity factor k′ (SCN10A; cell membrane chromatography; higher = stronger binding): 1.2
SSQLRYLARSQRITIQLIAGS — binding (VDAC1 (Homo sapiens, UniProt P21796); isothermal titration calorimetry; peptide; 100 µM, pH 7.5, 20 °C): no effect
Nc1nc2c(ncn2[C@H]2C[C@@H]3OP(=O)(O)OC[C@H]4O[C@@H](n5cnc6c(=O)[nH]c(N)nc65)C[C@@H]4OP(=O)(O)OC[C@H]3O2)c(=O)[nH]1 — Kd (T2, c-di-GMP riboswitch (Clostridium acetobutylicum); competitor, competition gel-shift; 4-24 h, pH 6.8, 22 °C, with: radiolabelled c-di-GMP): 11 nM
O=C(O)C1Nc2c(O)cccc2C2C=CCC12 (stereo not drawn) — IC50 (T3, ssRNA, CUG repeat (Homo sapiens); competition with MBNL1, competitor, TR-FRET): 242000 nM
NC(=O)NO — apparent second-order rate constant (nrdA/nrdB, with alpha subunit (Chlamydia trachomatis serovar D, UniProt O84834+O84835); Mn(IV)/Fe(III) cofactor reduction, stopped-flow absorption; 22 °C, fast phase, turnover conditions, with: CDP, ATP and DTT): 8 ± 4 M⁻¹ s⁻¹
Nc1ncnc2c1nc(Cl)n2[C@@H]1O[C@@H]2COP(=O)(O)O[C@H]2[C@H]1O — selectivity ratio (cAMP-dependent protein kinase type II-beta regulatory subunit, holoenzyme with catalytic subunit (Prkar2b, Rattus norvegicus, UniProt P12369, S112A); PKA holoenzyme activation, activator, fluorescence anisotropy; baseline: RIIβ over RIα, higher = RIIβ-selective): 0.2
O=c1c(O)cc([C@H]2Oc3cc(O)cc(O)c3C[C@H]2O)cc2c([C@H]3Oc4cc(O)cc(O)c4C[C@H]3O)cc(O)c(O)c12 — reduction of aggregates (Protein immune deficiency (imd, Drosophila melanogaster, UniProt Q7K4Z4); inhibitor, SDD-AGE densitometry; 100 µM, 30 min, room temperature): 60.9%
O=C(O)c1ccccc1-c1ccc(Cn2c3ccccc3c3cc(Br)ccc32)cc1 — Emax (PPARG (Homo sapiens, UniProt P37231); COS-7; 10 µM, 39 h): 35.8%
B1 — methylation conversion (SETD7 (Homo sapiens, UniProt Q8WTS6); peptide methylation, substrate, MALDI-TOF MS; 10 µM, 3 h, pH 8.0, 37 °C, enzyme 500 nM, with: SAM 30 µM): ≥ 90%
O=c1c(O)c(-c2ccc(O)c(O)c2)oc2cc(O)cc(O)c12 — remaining activity (UGT1A3 (Homo sapiens, UniProt P35503); enzyme activity, inhibitor; 50 µM): < 30.8%
O=c1cc(-c2ccccc2OCc2ccc(Br)cc2)ncn1C1CCCCC1O (stereo not drawn) — change in baseline activity (CHRM1; allosteric agonist, IP1 accumulation; CHO-M1 cells; 1 µM, unit not given; baseline: maximum ACh response): 2 ± 4
Nc1ncnc2c1ncn2[C@@H]1O[C@H](CO)C[C@H]1O — Vmax (Adenosine deaminase (Homo sapiens, UniProt P00813); substrate; human erythrocytes; 30 min, 37 °C): 0.1 nmol/min/mg
Cc1ccc(COc2ccccc2-c2cc(=O)n(C3CCCCC3O)cn2)cc1 (stereo not drawn) — change in baseline activity (CHRM1; allosteric agonist, IP1 accumulation; CHO-M1 cells; 1 µM, unit not given; baseline: maximum ACh response): -6.4 ± 3.9
O=C(O)[C@H]1O[C@@H](O[C@H]2c3cc4ccc5cccc6c7ccccc7c(c3C=C[C@@H]2O)c4c56)[C@H](O)[C@@H](O)[C@@H]1O (relative stereo) — kcat (UGT2B7 (Homo sapiens, UniProt P16662); glucuronidation, substrate; UGT-expressing HEK293 homogenate; normalized to UGT expression): 0.0011 ± 0.000117 s⁻¹
Cn1cnc2ncn(Cc3nc(CCc4ccc(Cl)cc4)no3)c(=O)c21 — in vivo over in vitro IC90 (Trpa1 (Rattus norvegicus, UniProt Q6RI86); refers to: unbound plasma concentration; rat; AITC-induced nocifensive behaviour): 5.6 fold
C=CC1=C(C)C2=Cc3c(C=C)c(C)c4[n]3[Fe]([Cl])[n]3c(c(C)c(CCC(=O)O)c3=CC3=NC(=C4)C(C)=C3CCC(=O)O)=CC1=N2 — Kd (T4, G-quadruplex DNAzyme, parallel; Soret absorption titration; pH 5.1, 25 °C, K+ 10 mM): 36 nM
C=CC(C)(C)c1cc(C(=O)c2c(-c3cc(-c4cc5cc(C(C)(C)C=C)c(O)cc5oc4=O)c(O)cc3O)oc3cc(O)ccc23)c(O)cc1O — concentration doubling activity (quinone reductase; inducer; Hepa1c1c7): 7.4 µM
O=c1cc(-c2ccccc2OCc2ccccc2)ncn1C1CCCCC1O (stereo not drawn) — ΔpEC50 of ACh (CHRM1; positive allosteric modulator, IP1 accumulation; CHO-M1 cells; 1 µM, 60 min, 37 °C, with: ACh; baseline: ACh alone, higher = stronger potentiation): 0.75 ± 0.06 log units
cardiac troponin I R141Q — binding (F1FO-ATP synthase (rat heart); ELISA; concentration not given): no binding
GGSHPSRPRAG (99mTc-labelled) — uptake (Fga/Fgb/Fgg (Mus musculus, UniProt E9PV24+Q8K0E8+Q8VCM7); peptide, heparinized mouse, carotid thrombosis, contralateral clot-free carotid; 3 µCi/g, 2 h): 1.1 ± 0.5 %ID/g

For quick reference, copied from above:
C=CC1=C(C)C2=Cc3c(C=C)c(C)c4[n]3[Fe]([Cl])[n]3c(c(C)c(CCC(=O)O)c3=CC3=NC(=C4)C(C)=C3CCC(=O)O)=CC1=N2 — Kd (T4, G-quadruplex DNAzyme, parallel; Soret absorption titration; pH 5.1, 25 °C, K+ 10 mM): 36 nM
C=CC(C)(C)c1cc(C(=O)c2c(-c3cc(-c4cc5cc(C(C)(C)C=C)c(O)cc5oc4=O)c(O)cc3O)oc3cc(O)ccc23)c(O)cc1O — concentration doubling activity (quinone reductase; inducer; Hepa1c1c7): 7.4 µM
O=c1cc(-c2ccccc2OCc2ccccc2)ncn1C1CCCCC1O (stereo not drawn) — ΔpEC50 of ACh (CHRM1; positive allosteric modulator, IP1 accumulation; CHO-M1 cells; 1 µM, 60 min, 37 °C, with: ACh; baseline: ACh alone, higher = stronger potentiation): 0.75 ± 0.06 log units
